Measured values gathered from unrelated publications.
± marks the error that the study gave.
GBA2: Beta-glucosidase (GBA2, Homo sapiens, UniProt Q9HCG7)
UniProt Q9HCG7, sequence (whole entry, looked up): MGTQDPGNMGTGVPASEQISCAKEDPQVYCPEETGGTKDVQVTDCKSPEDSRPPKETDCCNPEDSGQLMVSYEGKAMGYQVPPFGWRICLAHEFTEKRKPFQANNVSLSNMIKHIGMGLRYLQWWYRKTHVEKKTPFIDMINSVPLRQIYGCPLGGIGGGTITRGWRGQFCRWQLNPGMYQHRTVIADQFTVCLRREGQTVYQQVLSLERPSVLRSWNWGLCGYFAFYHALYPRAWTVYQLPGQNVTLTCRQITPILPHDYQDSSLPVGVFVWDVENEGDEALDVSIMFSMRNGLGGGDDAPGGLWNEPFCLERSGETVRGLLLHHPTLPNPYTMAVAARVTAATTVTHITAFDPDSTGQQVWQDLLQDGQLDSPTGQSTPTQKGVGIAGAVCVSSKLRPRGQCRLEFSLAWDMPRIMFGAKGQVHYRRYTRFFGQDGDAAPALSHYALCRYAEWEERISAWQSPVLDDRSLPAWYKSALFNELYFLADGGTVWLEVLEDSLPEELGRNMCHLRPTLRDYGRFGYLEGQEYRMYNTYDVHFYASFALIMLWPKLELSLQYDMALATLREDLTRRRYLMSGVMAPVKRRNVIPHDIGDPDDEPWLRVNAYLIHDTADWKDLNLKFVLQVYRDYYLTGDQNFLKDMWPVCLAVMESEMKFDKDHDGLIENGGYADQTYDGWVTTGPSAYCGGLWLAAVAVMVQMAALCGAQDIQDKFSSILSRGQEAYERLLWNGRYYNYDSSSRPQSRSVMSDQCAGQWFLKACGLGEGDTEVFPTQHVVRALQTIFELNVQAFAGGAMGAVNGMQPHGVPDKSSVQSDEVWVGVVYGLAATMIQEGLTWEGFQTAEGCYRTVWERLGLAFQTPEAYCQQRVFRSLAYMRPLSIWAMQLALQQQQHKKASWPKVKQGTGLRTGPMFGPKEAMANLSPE

The tissue uptake of `CCCC[C@H](NC(=O)CNC(=O)CNC(=O)[C@H](CCCCNC(=O)[C@H](CC(=O)O)NC(=O)C(C)c1ccc(CC(C)C)cc1)NC(=O)CN1CCN(CC(=O)O)CCN(CC(=O)O)CCN(CC(=O)O)CC1)C(=O)N[C@H]1CC(=O)NCCCC[C@@H](C(N)=O)NC(=O)[C@H](Cc2c[nH]c3ccccc23)NC(=O)[C@H](CCCNC(=N)N)NC(=O)[C@@H](Cc2ccccc2)NC(=O)[C@H](Cc2c[nH]cn2)NC1=O` (some centres unmarked) [lutetium-177 labelled] is reported as 0.3 ± 0.06 %ID/g (C57 mice, tumour-bearing, muscle; intravenous, 0.037 MBq, 4 h).
`CCCC[C@H](NC(=O)COCCOCCNC(=O)CN1CCN(CC(=O)O)CCN(CC(=O)O)CC1)C(=O)N[C@H]1CC(=O)NCCCC[C@@H](C(N)=O)NC(=O)[C@H](Cc2c[nH]c3ccccc23)NC(=O)[C@H](CCCNC(=N)N)NC(=O)[C@@H](Cc2ccccc2)NC(=O)[C@H](Cc2c[nH]cn2)NC1=O` [fluorine-18 labelled] has a tissue uptake of 0.59 ± 0.28 %ID/g (C57 mice B16-F10 melanoma, heart; intravenous, 0.37 MBq, 1 h).
`OC[C@@H]1[C@@H](O)[C@H](O)[C@@H](O)CN1CCCCCOCc1cccc(-c2ccccc2)c1` has a selectivity ratio of 38 (GBA2; inhibitor, 4MU-β-D-glucopyranoside; HEK293T homogenates overexpressing GBA2; reference: GCS IC50 over GBA2 IC50).
`COc1cccc(OC)c1-c1cc(C(=O)NC2(C(=O)O)C3CC4CC(C3)CC2C4)nn1-c1ccc(C(=O)N(C)CCCN(C)C(=O)[C@H](CCCCNC(=O)[C@H](CC(C)C)NC(=O)C2OC2C(=O)O)NC(=O)CN2CCN(CC(=O)[O-])CCN(CC(=O)[O-])CCN(CC(=O)[O-])CC2)cc1C(C)C.[177Lu+3]` (mixture of isomers) has a tissue uptake of 0.22 %ID/g (mouse HT-29 xenograft, small intestine; 24 h post injection, biodistribution).
With `N#C[C@@H]1CC(F)(F)CN1C(=O)CNC(=O)c1ccnc2c(NC(=O)CCOCCOCCOCCOCCOCCOCCNC(=O)[C@H](CCCCNC(=O)CN3CCN(CC(=O)[O-])CCN(CC(=O)[O-])CCN(CC(=O)[O-])CC3)NC(=O)CCCc3ccc(I)cc3)cccc12.[177Lu+3]` the tissue uptake was 1.09 ± 0.17 %ID/g (mouse, U-87 MG tumour xenograft, spleen; 1 h).
For `COc1cccc(OC)c1-c1cc(C(=O)NC2(C(=O)O)C3CC4CC(C3)CC2C4)nn1-c1ccc(C(=O)NCCNC(=O)[C@H](CCCCNC(=O)[C@H](CC(C)C)NC(=O)C2OC2C(=O)O)NC(=O)CN2CCN(CC(=O)[O-])CCN(CC(=O)[O-])CCN(CC(=O)[O-])CC2)cc1C(C)C.[177Lu+3]` (mixture of isomers), the tissue uptake was 0.89 %ID/g (mouse HT-29 xenograft, small intestine; 4 h post injection, biodistribution).
The tissue uptake of `[123I]c1ccc2nc(-c3ccc(-n4ccnn4)nc3)cn2c1` is reported as 0.674 ± 0.099 %ID/g (male Wistar rat, small intestine; intravenous, 4 MBq, 6 h).
For `CC(C)C[C@H](NC(=O)[C@@H](CCCCNC(=O)[C@@H](Cc1ccccc1)NC(=O)CCCCCCCNC(=O)CN1CCN(CC(=O)O)CCN(CC(=O)O)CCN(CC(=O)O)CC1)NC(=O)[C@H](Cc1ccc(O)cc1)NC(=O)[C@H](CO)NC(=O)[C@H](Cc1c[nH]c2ccccc12)NC(=O)[C@H](Cc1c[nH]cn1)NC(=O)[C@@H]1CCC(=O)N1)C(=O)N[C@@H](CCCNC(=N)N)C(=O)N1CCC[C@H]1C(=O)NCC(N)=O` [indium-111 labelled], the tissue uptake was 0.35 ± 0.1 %ID/g (biodistribution; male athymic nude mice, DU-145 prostate cancer xenograft, stomach; intravenous, 0.037 MBq, 4 h post-injection).
For `COc1cccc(-c2ccc(COCCCCCN3C[C@H](O)[C@@H](O)[C@H](O)[C@H]3CO)cc2)c1`, the selectivity ratio was 8 (GBA2; inhibitor, 4MU-β-D-glucopyranoside; HEK293T homogenates overexpressing GBA2; reference: GCS IC50 over GBA2 IC50).
`O=C(O)CCCOc1ccc([18F])cc1-c1cc(-c2ccccc2C(F)(F)F)n(-c2ccccc2)n1` gave a tissue uptake of 0.02 ± 0.02 %ID/g (mouse, urine; intravenous, dose not given, 5 min).
`COC1CN([C@H]2CC[C@H]([C@@]3(C)Oc4c(Cl)cc(C(=O)NCc5c(SC)cc(C)[nH]c5=O)c(C)c4O3)CC2)C1` — result for “log2 fold change”: 1.74 (RNA-seq, refers to: EPB41L5; human, whole blood; dose not given, 24 h; reference: pretreatment baseline).

Excerpt of the above:
With `N#C[C@@H]1CC(F)(F)CN1C(=O)CNC(=O)c1ccnc2c(NC(=O)CCOCCOCCOCCOCCOCCOCCNC(=O)[C@H](CCCCNC(=O)CN3CCN(CC(=O)[O-])CCN(CC(=O)[O-])CCN(CC(=O)[O-])CC3)NC(=O)CCCc3ccc(I)cc3)cccc12.[177Lu+3]` the tissue uptake was 1.09 ± 0.17 %ID/g (mouse, U-87 MG tumour xenograft, spleen; 1 h).
